Assay results pooled from the literature.
Each numbered part is a random draw from the data of one study; scales do not carry over between parts. Several values in a cell are separate wells, animals, samples, runs or records.
Chain of UniProt Q86UE8 (whole entry, looked up): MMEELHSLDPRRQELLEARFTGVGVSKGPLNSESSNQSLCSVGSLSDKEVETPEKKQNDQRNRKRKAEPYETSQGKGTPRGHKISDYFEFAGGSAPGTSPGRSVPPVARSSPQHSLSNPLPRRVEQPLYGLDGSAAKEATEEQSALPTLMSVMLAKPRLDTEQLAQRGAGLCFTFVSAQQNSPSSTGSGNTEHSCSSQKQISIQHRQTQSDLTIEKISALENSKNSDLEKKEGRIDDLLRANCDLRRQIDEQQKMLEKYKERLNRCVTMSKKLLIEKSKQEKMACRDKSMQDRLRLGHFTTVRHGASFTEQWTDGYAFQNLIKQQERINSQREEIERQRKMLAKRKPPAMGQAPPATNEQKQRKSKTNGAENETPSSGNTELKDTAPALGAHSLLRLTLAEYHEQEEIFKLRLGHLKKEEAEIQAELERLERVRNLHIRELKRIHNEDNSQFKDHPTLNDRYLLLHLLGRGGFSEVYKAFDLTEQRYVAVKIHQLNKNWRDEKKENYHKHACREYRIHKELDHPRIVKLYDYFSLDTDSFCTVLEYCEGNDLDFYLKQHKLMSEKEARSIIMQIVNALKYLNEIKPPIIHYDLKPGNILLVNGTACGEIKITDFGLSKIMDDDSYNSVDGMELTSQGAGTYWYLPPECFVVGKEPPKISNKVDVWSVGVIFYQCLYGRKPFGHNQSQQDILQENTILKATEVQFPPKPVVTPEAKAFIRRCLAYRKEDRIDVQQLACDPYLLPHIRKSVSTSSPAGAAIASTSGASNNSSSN
Chain of UniProt Q86Z02 (whole entry, looked up): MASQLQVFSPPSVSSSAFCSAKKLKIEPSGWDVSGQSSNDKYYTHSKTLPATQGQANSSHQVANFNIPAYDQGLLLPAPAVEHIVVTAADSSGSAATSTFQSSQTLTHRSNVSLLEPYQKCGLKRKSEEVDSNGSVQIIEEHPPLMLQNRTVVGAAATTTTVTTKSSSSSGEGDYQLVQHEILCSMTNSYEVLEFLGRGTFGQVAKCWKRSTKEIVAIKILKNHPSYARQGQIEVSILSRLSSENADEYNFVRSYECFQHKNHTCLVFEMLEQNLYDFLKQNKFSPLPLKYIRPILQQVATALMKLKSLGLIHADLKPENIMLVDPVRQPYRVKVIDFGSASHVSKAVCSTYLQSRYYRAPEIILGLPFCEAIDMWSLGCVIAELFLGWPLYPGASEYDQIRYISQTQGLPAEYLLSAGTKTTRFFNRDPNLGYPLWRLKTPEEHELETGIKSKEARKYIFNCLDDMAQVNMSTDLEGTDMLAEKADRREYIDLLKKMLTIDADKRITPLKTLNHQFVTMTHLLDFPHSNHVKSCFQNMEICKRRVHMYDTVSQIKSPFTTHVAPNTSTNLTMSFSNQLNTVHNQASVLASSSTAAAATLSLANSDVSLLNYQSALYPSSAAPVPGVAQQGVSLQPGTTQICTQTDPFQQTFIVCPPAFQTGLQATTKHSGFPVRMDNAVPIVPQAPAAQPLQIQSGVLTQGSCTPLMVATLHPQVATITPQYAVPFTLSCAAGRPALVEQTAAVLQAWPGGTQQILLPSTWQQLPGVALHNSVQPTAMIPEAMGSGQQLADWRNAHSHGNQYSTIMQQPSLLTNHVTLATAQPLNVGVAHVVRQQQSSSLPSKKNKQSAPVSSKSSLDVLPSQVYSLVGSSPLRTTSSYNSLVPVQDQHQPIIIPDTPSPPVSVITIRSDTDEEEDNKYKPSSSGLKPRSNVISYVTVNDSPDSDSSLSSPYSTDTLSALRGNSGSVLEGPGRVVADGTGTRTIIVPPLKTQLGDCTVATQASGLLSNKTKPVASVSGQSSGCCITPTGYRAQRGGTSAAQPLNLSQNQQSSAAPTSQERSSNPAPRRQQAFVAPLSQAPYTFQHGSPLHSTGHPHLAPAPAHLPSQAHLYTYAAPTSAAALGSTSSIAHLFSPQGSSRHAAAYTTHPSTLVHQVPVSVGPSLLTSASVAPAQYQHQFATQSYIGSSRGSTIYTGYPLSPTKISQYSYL
Chain of UniProt Q8N752 (whole entry, looked up): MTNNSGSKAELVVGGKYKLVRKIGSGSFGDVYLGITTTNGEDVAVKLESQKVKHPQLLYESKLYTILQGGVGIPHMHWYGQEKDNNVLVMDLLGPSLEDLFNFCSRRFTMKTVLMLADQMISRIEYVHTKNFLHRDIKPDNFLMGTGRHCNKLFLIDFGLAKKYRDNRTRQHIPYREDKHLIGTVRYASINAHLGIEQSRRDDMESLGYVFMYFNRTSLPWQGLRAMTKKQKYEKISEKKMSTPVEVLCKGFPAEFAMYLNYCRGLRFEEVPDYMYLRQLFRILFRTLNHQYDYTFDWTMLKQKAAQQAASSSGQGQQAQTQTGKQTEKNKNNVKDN
Chain of UniProt P49840 (whole entry, looked up): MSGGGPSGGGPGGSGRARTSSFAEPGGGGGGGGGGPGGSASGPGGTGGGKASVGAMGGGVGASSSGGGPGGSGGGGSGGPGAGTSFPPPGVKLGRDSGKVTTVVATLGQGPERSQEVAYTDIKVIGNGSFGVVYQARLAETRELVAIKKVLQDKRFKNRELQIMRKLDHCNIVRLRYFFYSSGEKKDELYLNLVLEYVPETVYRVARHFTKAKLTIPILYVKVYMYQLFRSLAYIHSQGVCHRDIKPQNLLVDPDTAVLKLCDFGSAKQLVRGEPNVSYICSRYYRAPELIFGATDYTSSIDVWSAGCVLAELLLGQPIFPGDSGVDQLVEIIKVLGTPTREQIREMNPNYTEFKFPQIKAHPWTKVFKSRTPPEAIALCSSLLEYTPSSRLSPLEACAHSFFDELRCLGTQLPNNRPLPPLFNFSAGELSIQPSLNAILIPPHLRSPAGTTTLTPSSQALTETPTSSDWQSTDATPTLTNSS
Chain of UniProt Q13188 (whole entry, looked up): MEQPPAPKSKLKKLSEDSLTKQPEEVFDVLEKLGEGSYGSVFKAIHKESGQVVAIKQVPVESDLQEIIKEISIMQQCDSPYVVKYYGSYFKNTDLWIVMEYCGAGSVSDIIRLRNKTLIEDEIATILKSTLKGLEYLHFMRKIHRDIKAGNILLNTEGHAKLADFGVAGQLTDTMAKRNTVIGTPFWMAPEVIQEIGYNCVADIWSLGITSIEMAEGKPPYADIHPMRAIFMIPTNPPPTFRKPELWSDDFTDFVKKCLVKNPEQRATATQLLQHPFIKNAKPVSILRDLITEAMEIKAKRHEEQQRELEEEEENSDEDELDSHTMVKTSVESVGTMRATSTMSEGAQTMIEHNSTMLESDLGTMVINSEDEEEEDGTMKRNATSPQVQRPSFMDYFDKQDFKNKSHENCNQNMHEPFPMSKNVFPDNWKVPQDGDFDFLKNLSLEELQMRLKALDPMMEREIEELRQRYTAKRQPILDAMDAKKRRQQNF
Chain of UniProt P43403 (whole entry, looked up): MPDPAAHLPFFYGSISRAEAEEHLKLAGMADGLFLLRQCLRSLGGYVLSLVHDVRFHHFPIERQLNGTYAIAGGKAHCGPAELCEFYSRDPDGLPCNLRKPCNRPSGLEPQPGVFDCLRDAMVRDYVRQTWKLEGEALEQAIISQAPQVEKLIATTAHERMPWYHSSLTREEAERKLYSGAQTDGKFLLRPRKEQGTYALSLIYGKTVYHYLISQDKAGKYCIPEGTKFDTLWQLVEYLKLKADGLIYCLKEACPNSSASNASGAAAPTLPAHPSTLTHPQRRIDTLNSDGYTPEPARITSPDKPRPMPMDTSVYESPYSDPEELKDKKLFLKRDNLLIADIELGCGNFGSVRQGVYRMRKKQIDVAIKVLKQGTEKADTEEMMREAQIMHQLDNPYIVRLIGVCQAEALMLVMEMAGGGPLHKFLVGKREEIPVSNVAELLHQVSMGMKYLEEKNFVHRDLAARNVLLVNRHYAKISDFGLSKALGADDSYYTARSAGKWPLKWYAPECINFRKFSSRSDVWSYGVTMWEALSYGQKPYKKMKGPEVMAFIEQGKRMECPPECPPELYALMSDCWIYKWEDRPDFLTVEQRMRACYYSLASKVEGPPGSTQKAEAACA

Sample 1
Compound: CCC(=N\O)/C(C)=C/c1ccc(F)cc1
Concentration: 1 µM
| cell line | system | setting | how to read | viability |
| --- | --- | --- | --- | --- |
| colorectal tumour organoids | – | – | baseline: DMSO | 111% |
| sample I colorectal tumour organoid | – | replicate 1 | baseline: DMSO | 97.4% |
| sample C colorectal tumour organoid | – | replicate 1 | baseline: DMSO | 108% |
| sample BA colorectal tumour organoid | – | – | baseline: DMSO | 120% |
| sample B colorectal tumour organoid | – | replicate 1 | baseline: DMSO | 114% |
| sample C colorectal tumour organoid | – | replicate 2 | baseline: DMSO | 105% |
| sample B colorectal tumour organoid | – | replicate 2 | baseline: DMSO | 120% |
| sample D normal epithelium organoids | human patient-derived organoids | – | baseline: DMSO control | 87.2% and 89.3% |
| sample I colorectal tumour organoid | – | replicate 2 | baseline: DMSO | 80.7% |

Sample 2
Structure (SMILES): Cc1nc(Nc2ncc(C(=O)Nc3c(C)cccc3Cl)s2)cc(N2CCN(CCO)CC2)n1
Mode: inhibitor
| target | setting | inhibition |
| --- | --- | --- |
| Glycogen synthase kinase-3 alpha (GSK3A, Homo sapiens, UniProt P49840) | 10 µM | < 50% |
| Serine/threonine-protein kinase 3 (STK3, Homo sapiens, UniProt Q13188) | 10 µM | < 50% |
| Casein kinase I isoform alpha-like (CSNK1A1L, Homo sapiens, UniProt Q8N752) | 10 µM | < 50% |
| Tyrosine-protein kinase ZAP-70 (ZAP70, Homo sapiens, UniProt P43403) | 1 µM | < 50% |
| Homeodomain-interacting protein kinase 1 (HIPK1, Homo sapiens, UniProt Q86Z02) | 10 µM | < 50% |
| Serine/threonine-protein kinase tousled-like 2 (TLK2, Homo sapiens, UniProt Q86UE8) | 10 µM | < 50% |
| Mitogen-activated protein kinase kinase kinase kinase 4 (MAP4K4, Homo sapiens, UniProt O95819) | 10 µM | 77% |

Sample 3
Compound: CC(C)n1cnc(-c2ccc(F)cc2)c1-c1ncc(C(=O)Nc2ccc(N3CCN(C)CC3)cc2)[nH]1
Method: phase 2a trial
Host: idiopathic pulmonary fibrosis patients
| setting | patients with bronchitis [%] |
| --- | --- |
| all arms pooled, grade 1 emergent event | 0 |
| all arms pooled, grade 5 emergent event | 0 |
| all arms pooled, grade 4 emergent event | 0 |
| 60 mg once daily, grade 5 emergent event | 0 |
| 60 mg once daily, grade 2 emergent event | 0 |
| 30 mg once daily, grade 3 emergent event | 0 |
| all arms pooled, grade 3 emergent event | 0 |
| 30 mg once daily, grade 1 emergent event | 0 |

Single results of other studies
| SMILES | assay | system | setting | measurement | value |
| --- | --- | --- | --- | --- | --- |
| COc1ccc(-c2c(Nc3ccccn3)[nH]c3c(C4=CCCCC4)c(-c4ccccc4)nn3c2=O)cc1 | LC-MS/MS, item: S-adenosylmethionine | human, plasma | oral, 50 mg once daily | percent change from baseline | -58.7% and -73.8% and -76.5% |

Repeated from above (sample 1):
| cell line | system | setting | how to read | viability |
| --- | --- | --- | --- | --- |
| sample C colorectal tumour organoid | – | replicate 1 | baseline: DMSO | 108% |
| sample BA colorectal tumour organoid | – | – | baseline: DMSO | 120% |
| sample B colorectal tumour organoid | – | replicate 1 | baseline: DMSO | 114% |
